# Assay results collected from several papers.
# Each line is one published result; not all experiments were run side by side. ± marks the error that the study gave.
SMILES,assay,test system,conditions,how to read,quantity,result
COc1ccc(F)cc1S(=O)(=O)Nc1cnc2c(c1)C(=O)NCCO2,ultracentrifugation,human plasma,,,unbound fraction,0.196 to 0.207
CC(C)C[C@@H](NC(=O)[C@@H](CCCNC(=N)N)NC(=O)[C@@H](Cc1c[nH]cn1)NC(=O)[C@@H](Cc1c[nH]c2ccccc12)NC(=O)[C@@H](Cc1c[nH]cn1)NC(=O)[C@@H](Cc1ccccc1)NC(=O)[C@H](NC(=O)[C@@H](Cc1ccc(O)cc1)NC(=O)CNC(=O)CNC(=O)CCOCCOCCOCCNC(=O)CN1CCN(CC(=O)O)CCN(CC(=O)O)CC1)[C@H](C)O)C(=O)N[C@H](CC(N)=O)C(=O)N1CCC[C@@H]1C(=O)O [gallium-68 labelled],,male C57BL/6 mice,"intravenous, 1.85 MBq, 60 min, together with: antibody blocking",relative to: tumour over blood,tumour-to-tissue ratio,4.89 ± 0.89
CC(=O)NCC(=O)N[C@@H](CO)C(=O)N[C@@H](CCCCNP(=O)(O)O)C(=O)NCC(=O)NCC(N)=O,non-enzymatic hydrolysis,,"100 µM, pH 7.8, no enzyme",,initial velocity,3.09e-09 M/s
COc1ccc(C)cc1NC(=O)OC1CC2CCCC(C1)N2Cc1ccc(CC[18F])cc1 (stereo not shown),,"mouse, blood","1 h, tumour-bearing",,tracer uptake,0.93 %ID/g
CN(C)C(CNC(=O)Nc1cc(C(F)(F)F)ccc1N1CCOCC1)c1ccncc1 (stereo not shown),,"mouse, serum","intraperitoneal, 240 mg/kg single dose",,serum chloride,111 mmol/L
C/C=C/C=C/C/C=C/CCCCCCCc1cccc(O)c1O,,"Wistar rat, male, plasma","intravenous, 20 mg/kg",,AUMC,75.1 ± 4.01 mg·h²/L
CC(C)[C@H]1NC(=O)C[C@H]2/C=C/CCSSC[C@@H](NC1=O)C(=O)N[C@H](Cc1cccc3ccccc13)C(=O)NCC(=O)O2,,"nude mouse, blood","oral, 12 mg/kg",,AUC,0.272 ng·h/mL
CC[C@H](C)[C@@H]1NC(=O)[C@H](C(C)C)NC(=O)[C@H](C(C)C)NC(=O)[C@H](CC(C)C)NC(=O)C[C@@H](C(=O)N[C@@H](Cc2c[nH]c3ccccc23)C(=O)N[C@@H](CC(N)=O)C(=O)N[C@@H](C)C(=O)N2CCC[C@H]2C(=O)NCC(=O)N[C@@H](Cc2c[nH]c3ccccc23)C(=O)N[C@@H](Cc2ccccc2)C(=O)O)NC(=O)[C@H](C)NC(=O)[C@H](CCC(N)=O)NC(=O)[C@H](C(C)C)NC1=O,HPLC,,"3 h, 95 °C",,thermal stability,stable
CC[C@H](C)[C@H](NC(=O)[C@H](CCC(=O)O)NC(=O)[C@H](CCC(=O)O)NC(=O)[C@H](Cc1ccccc1)NC(=O)[C@H](CC(=O)O)NC(=O)CNC(=O)[C@H](CC(N)=O)NC(=O)CNC(=O)CNC(=O)CNC(=O)CNC(=O)[C@@H]1CCCN1C(=O)[C@H](CCCNC(=N)N)NC(=O)[C@@H]1CCCN1C(=O)[C@H](N)Cc1ccccc1)C(=O)N1CCC[C@H]1C(=O)N[C@@H](CCC(=O)O)C(=O)N[C@@H](CCC(=O)O)C(=O)N[C@@H](Cc1ccc(O)cc1)C(=O)N[C@@H](CC(C)C)C(=O)O,,"male human, plasma","intravenous, 0.5 mg/kg, single dose, healthy volunteers",,Vd,0.17 L/kg
CSCC[C@H](NC(=O)[C@H](Cc1ccc(O)cc1)NC(=O)[C@@H](CC(=O)O)NC(=O)CN1CCN(CC(=O)O)CCN(CC(=O)O)CCN(CC(=O)O)CC1)C(=O)NCC(=O)N[C@@H](Cc1c[nH]c2ccccc12)C(=O)N[C@@H](CCSC)C(=O)N[C@@H](CC(=O)O)C(=O)N[C@@H](Cc1ccccc1)C(N)=O,,"MF1 nude mouse, male, CA20948 xenograft","intravenous, 0.2 µg, 4 h, 111In-labelled",relative to: tumour over kidney,tumour-to-kidney ratio,0.2
CCC(=C(c1ccc(Cl)cc1)c1ccc(OCCN2CCOCC2)cc1)c1ccc(OC)cc1,,"C57BL/6 mice, plasma","oral, 400 mg/kg",relative to: male over female,AUC(0-last) ratio,2.2 fold
CC(C)[C@H](NC(=O)CNC(=O)[C@H](CCC(N)=O)NC(=O)[C@H](C)N)C(=O)O,moderate intensity,human,"10 mg/kg, 3 days, thrice daily dosing",,subjects with adverse events,0%
CSCC[C@@H]1NC(=O)[C@@H]2CSSC[C@H](NC(=O)[C@H](CO)NC(=O)[C@H](C)N)C(=O)N[C@@H](CCCNC(=N)N)C(=O)N[C@@H]([C@@H](C)O)C(=O)N3CCC[C@H]3C(=O)N[C@@H](CCCCN)C(=O)N[C@@H](CC(=O)O)C(=O)N[C@H]3CSSC[C@H](NC(=O)[C@H](CCCCN)NC(=O)[C@H](CCCNC(=N)N)NC(=O)[C@H](CC(N)=O)NC1=O)C(=O)N[C@@H](CCCCN)C(=O)N[C@H]1CSSC[C@H](NC(=O)[C@@H]4CCCN4C(=O)[C@H](CC(=O)O)NC(=O)[C@H](C)NC3=O)C(=O)N[C@@H](C)C(=O)N[C@@H](CCCCN)C(=O)N[C@@H](CCC(=O)O)C(=O)N[C@@H]([C@@H](C)O)C(=O)NCC(=O)N[C@@H](CSSC[C@@H](C(N)=O)NC(=O)[C@H](CCCNC(=N)N)NC(=O)[C@H](CC(N)=O)NC1=O)C(=O)N1CCC[C@H]1C(=O)N[C@@H](Cc1ccc(O)cc1)C(=O)NCC(=O)N[C@@H](CCCCN)C(=O)N2,,"DA rat pristane-induced arthritis, serum","subcutaneous, 0.1 mg/kg every other day, 21 days",,Glucose,105 mg/dL
CCCCCOc1ccc(-c2cc(-c3ccc(C(=O)N[C@H]4C[C@@H](O)[C@@H](O)NC(=O)[C@@H]5[C@@H](O)[C@@H](C)CN5C(=O)[C@H]([C@H](O)CC(N)=O)NC(=O)[C@H]([C@H](O)[C@@H](O)c5ccc(O)c(O)c5)NC(=O)[C@@H]5C[C@@H](O)CN5C(=O)[C@H]([C@@H](C)O)NC4=O)cc3)no2)cc1,,"human severe hepatic dysfunction, plasma","intravenous, up to 12 h, concentration below limit",,lower limit of quantification,< 0.05 µg/mL
Cc1cc(Oc2nc(N3CC[C@@H](c4ccncc4)C3)ncc2F)[nH]n1,,"BALB/c mice, female","s.c., 1500 mg/kg, 28 days, long-acting injectable",,tolerability,not toxic
C[S]1CC[S]2CC[P](CO)(CO)[99Tc+]12.[C-]#[O+].[C-]#[O+].[C-]#[O+],,CF-1 mouse,"intravenous, 1 h",,uptake in large intestine,16.7 %ID
CN[C@](C)(C[18F])C(=O)O,,"SCID mouse DU-145 xenograft, heart",30 min post injection,,tissue uptake,2.9 ± 0.4 %ID/g
CC(CCC(=O)NCC(=O)O)C1CCC2C3CCC4CC(OC5OC(C(=O)O)C(O)C(O)C5O)CCC4(C)C3CC(O)C12C (stereo not shown),item: glucuronide to parent ratio,"human, plasma","dose not given, sex-adjusted",relative to: C/C over T/T,ratio of metabolic ratios,5.57
COC(=O)C[C@](O)(CCCC(C)(C)OC(C)=O)C(=O)O[C@@H]1C(OC)=C[C@]23CCCN2CCc2cc4c(cc2[C@H]13)OCO4,,"CD1 mouse, brain","subcutaneous, 1 mg/kg, 2 h",,tissue concentration,3.37 ng/mL
CCC(C)C(=O)OC1C2C3(C)CCC(OC4CC(OC)C(OC5OC(C)C(O)C(OC)C5O)C(C)O4)CC3CCC23OC32CCC(C(C)=O)C2(C)C1OC(C)=O (stereo not shown),,Caco-2,10 µM,,Papp B→A,1.53 ×10⁻⁶ cm/s
CC[C@H](C)[C@H](NC(=O)[C@H](CCCCN)NC(=O)CNC(=O)[C@H](CC(C)C)NC(=O)[C@@H](NC(=O)[C@H](C)NC(=O)[C@H](CCCCN)NC(=O)CNC(=O)[C@H](C)NC(=O)CNC(=O)[C@H](CCCCN)NC(=O)[C@H](CCSC)NC(=O)[C@H](CCCCN)NC(=O)[C@@H](NC(=O)[C@H](Cc1c[nH]c2ccccc12)NC(=O)[C@H](CC(C)C)NC(=O)[C@H](CCC(=O)O)NC(=O)[C@H](CCCCN)NC(=O)[C@H](CC(C)C)NC(=O)[C@@H](N)CC(C)C)[C@@H](C)O)C(C)C)C(=O)N[C@@H](CCCCN)C(=O)NCC(=O)N[C@@H](CC(C)C)C(=O)N[C@@H](CC(C)C)C(=O)O,acrylamide quenching,"PC:cholesterol vesicles, 250 µM lipid","2 µM, together with: acrylamide",,Stern-Volmer constant,3.18 ± 1.27 M⁻¹
CSCC[C@H](NC(=O)[C@H](CO)NC(=O)[C@H](Cc1ccc(O)cc1)NC(=O)[C@@H](N)CO)C(=O)N[C@@H](CCC(=O)O)C(=O)N[C@@H](Cc1c[nH]cn1)C(=O)N[C@@H](Cc1ccccc1)C(=O)N[C@@H](CCCNC(=N)N)C(=O)N[C@@H](Cc1c[nH]c2ccccc12)C(=O)NCC(=O)N[C@@H](CCCCN)C(=O)N1CCC[C@H]1C(=O)N[C@H](C(=O)NCC(=O)N[C@@H](CCCCN)C(=O)N[C@@H](CCCCN)C(=O)N[C@@H](CCCNC(=N)N)C(=O)N[C@@H](CCCNC(=N)N)C(=O)N1CCC[C@H]1C(=O)N[C@H](C(=O)N[C@@H](CCCCN)C(=O)N[C@H](C(=O)N[C@@H](Cc1ccc(O)cc1)C(=O)N1CCC[C@H]1C(=O)N[C@@H](CC(=O)O)C(=O)NCC(=O)N[C@@H](C)C(=O)N[C@@H](CCC(=O)O)C(=O)N[C@@H](CC(=O)O)C(=O)N[C@@H](CCC(=O)O)C(=O)N[C@@H](CC(C)C)C(=O)N[C@@H](C)C(=O)N[C@@H](CCC(=O)O)C(=O)N[C@@H](C)C(=O)N[C@@H](Cc1ccccc1)C(=O)N1CCC[C@H]1C(=O)N[C@@H](CC(C)C)C(=O)N[C@@H](CCC(=O)O)C(=O)N[C@@H](Cc1ccccc1)C(=O)O)C(C)C)C(C)C)C(C)C,,"healthy human subjects, plasma","subcutaneous, 80 IU three times weekly, day 1, repository corticotropin injection",,AUC(0-last),0.768 ng·h/mL

# Some of these lines once more:
SMILES,assay,test system,conditions,how to read,quantity,result
CC(CCC(=O)NCC(=O)O)C1CCC2C3CCC4CC(OC5OC(C(=O)O)C(O)C(O)C5O)CCC4(C)C3CC(O)C12C (stereo not shown),item: glucuronide to parent ratio,"human, plasma","dose not given, sex-adjusted",relative to: C/C over T/T,ratio of metabolic ratios,5.57
CC(C)[C@H]1NC(=O)C[C@H]2/C=C/CCSSC[C@@H](NC1=O)C(=O)N[C@H](Cc1cccc3ccccc13)C(=O)NCC(=O)O2,,"nude mouse, blood","oral, 12 mg/kg",,AUC,0.272 ng·h/mL
CCC(C)C(=O)OC1C2C3(C)CCC(OC4CC(OC)C(OC5OC(C)C(O)C(OC)C5O)C(C)O4)CC3CCC23OC32CCC(C(C)=O)C2(C)C1OC(C)=O (stereo not shown),,Caco-2,10 µM,,Papp B→A,1.53 ×10⁻⁶ cm/s
